# Results collected from several papers.
# Numbered parts are unrelated; each lists some results of a single study.

# Series 1
# Target: Histone acetyltransferase KAT6A, winged helix 2, GST fusion (KAT6A, Homo sapiens, UniProt Q92794, residues 85-181)
# Technique: protein binding microarray
# Molecule type: double-stranded DNA, one strand shown
# Medium: in vitro
# Concentration: not given
# Notes: 8-mer, flanks averaged, mean of 2 arrays, mostly near background
# Baseline: not given
# Direction: higher = stronger binding
# Residues (chain): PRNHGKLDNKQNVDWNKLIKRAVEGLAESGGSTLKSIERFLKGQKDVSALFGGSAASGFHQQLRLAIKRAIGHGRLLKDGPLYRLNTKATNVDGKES
Sequence,E-score
TAGTCCCA,0.000165
TATACGAA,0.0294
ATGCACTC,-0.0893
AGTCCCAA,0.0615
ACTGCCCG,0.0794
AAGCAAAC,-0.027
CCTAAACG,0.0864
AAAAGCCA,0.203

# Series 2
# Target: Protein kinase C epsilon type (PRKCE, Homo sapiens, UniProt Q02156)
# Effect on: enzyme activity
# Mode: inhibitor
# Concentration: 0.5 µM
# Baseline: control
# Residues (Q02156 1-737): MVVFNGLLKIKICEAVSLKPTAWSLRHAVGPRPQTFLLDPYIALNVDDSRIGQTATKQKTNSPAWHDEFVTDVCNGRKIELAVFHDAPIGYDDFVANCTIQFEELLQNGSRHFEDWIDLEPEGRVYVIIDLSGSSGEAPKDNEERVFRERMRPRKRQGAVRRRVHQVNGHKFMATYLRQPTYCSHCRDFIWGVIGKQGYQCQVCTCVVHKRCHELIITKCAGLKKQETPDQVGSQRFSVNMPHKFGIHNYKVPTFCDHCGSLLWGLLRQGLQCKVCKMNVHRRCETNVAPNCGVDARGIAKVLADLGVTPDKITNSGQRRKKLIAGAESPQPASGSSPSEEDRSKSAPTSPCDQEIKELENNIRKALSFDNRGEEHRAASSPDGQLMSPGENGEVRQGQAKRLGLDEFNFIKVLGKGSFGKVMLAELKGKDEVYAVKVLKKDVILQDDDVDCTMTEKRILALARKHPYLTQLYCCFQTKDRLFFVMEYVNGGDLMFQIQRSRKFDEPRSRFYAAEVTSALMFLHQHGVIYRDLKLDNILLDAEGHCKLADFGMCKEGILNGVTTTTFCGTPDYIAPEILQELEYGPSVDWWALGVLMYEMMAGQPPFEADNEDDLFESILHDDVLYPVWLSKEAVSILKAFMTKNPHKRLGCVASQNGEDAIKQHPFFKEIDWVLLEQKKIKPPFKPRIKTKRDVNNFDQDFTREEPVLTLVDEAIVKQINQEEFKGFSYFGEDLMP
SMILES,remaining activity [%]
Cc1cc2ncc(-c3ccccc3)nc2cc1C,99.6
O=c1cc(-c2cccc3c2Sc2ccccc2S3)oc(N2CCOCC2)c1,109
CN([C@@H](Cc1ccc(OS(=O)(=O)c2cccc3cnccc23)cc1)C(=O)N1CCN(c2ccccc2)CC1)S(=O)(=O)c1cccc2cnccc12,99.5
C[C@@H]1CCN(C(=O)CC#N)C[C@@H]1N(C)c1ncnc2[nH]ccc12,98.5
Nc1cccc(-c2cc3c(Oc4cccc(O)c4)ncnc3[nH]2)c1,97.4
Cc1cn(-c2cc(NC(=O)c3ccc(C)c(Nc4nccc(-c5cccnc5)n4)c3)cc(C(F)(F)F)c2)cn1,96.9

# Series 3
# Target: RING finger protein unkempt homolog, zinc fingers 1-6, GST-SBP tag (UNK, Homo sapiens, UniProt Q9C0B0, residues 30-357)
# Technique: RNA Bind-n-Seq
# Molecule type: RNA
# Medium: in vitro
# Concentration: not given
# Notes: RNA with constant flanks, human and mouse sites, ends assumed
# Baseline: input RNA pool
# Direction: higher = stronger binding
# Constant ends, left off below: GGGAGUUCUACAGUCCGACGAUC … CAACAGAGGAUUGAGCAUCA
# Target sequence (chain): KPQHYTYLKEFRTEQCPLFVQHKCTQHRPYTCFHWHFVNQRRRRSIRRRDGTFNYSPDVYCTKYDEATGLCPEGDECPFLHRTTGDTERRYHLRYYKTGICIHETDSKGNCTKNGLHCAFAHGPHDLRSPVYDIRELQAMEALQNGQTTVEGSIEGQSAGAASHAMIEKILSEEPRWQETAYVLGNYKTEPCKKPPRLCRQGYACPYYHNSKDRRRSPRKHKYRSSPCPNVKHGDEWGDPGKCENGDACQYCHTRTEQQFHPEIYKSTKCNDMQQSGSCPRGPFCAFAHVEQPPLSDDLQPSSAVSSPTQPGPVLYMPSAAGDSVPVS
Sequence,bound/input enrichment
GAGUCGGAUGUUGAGGCUCAGCAGUCUCAUGGCAGCAGUGCCUGUUCACAGCCCCAUGGCAGCGUUACCCAGUCCCAAGGCUCCUCCUCACAGUCCCAGGGCAUAUCCAGCUCCUCUACC,0.106 ratio
CUUACAGUUGGUGGUAAGGCCUUUGGAAUGUUUGAAGGAACAGCAUAUGCCAUAUAUGAGCUGGCUGUGGCUUCAUUUCCCAAGAAGCAGGAGUGACUUCAGUCAUCCCAGCAAUCGCUU,0.0595 ratio
CCCCAGCCGGGCACUACCGCCAUGACGAACGUGUACUCCUUGGAUGGGAUCCUGGUGUUUGGUUUGCUCUUUGUUUGCACCUGUGCCUACUUCAAGAAAGUACCUCGUCUCAAAACCUGG,0.122 ratio
CCUGUCUCAGGUUCAAAAGCUGCUUUGCAUGUGCCCAGUAGAUUUUCAUGGAAUCUUCCAACUAGAUGAAAGACGGAGAGAUGCAGUGAUUGCAUUGGGCAUUUUUCUCAUUGAAUCUGA,0.218 ratio
CAUCACCGGGUGGGCGAGAUGGCUCCACCCAAUGCCUACACUGUCACCGACUUGGUGGAGUAUAGCAUCAUCAUAGAACAGCUCUCCAAUGGCAAGUGGGUCCCCUUUGAUGGUGAUGAC,0.611 ratio
GUGCUGCAGCAGCUCCCAGCCCCGUGCUAGGAAACAUGCCCCCAGGAGAUGGCAUGCCAGUAGGUCCCGUGCCACCAGGGUUCUUUCAGCCUUUUAUGUCGCCUCGGUACCCUGGCGGCC,0.261 ratio
UUUCCACUUGAUGUCAUCACGCAGAAGGGGUGAAAGAGACUCGGUGACAGAUACAGAAAUGAACACACCUGUGAGUACUGGAUGCCUGUGAGCUUGCCAUUACCUGCACUGCAAAGACAC,0.0869 ratio
CUCCAAGUUCGAAGCAUUCAGCAAGUGGUGGCAAGGCAGAGCCACCAGAAGAGGGCACCUAGUUUCCAUGACAAAUAUGGGAAUGCUAUAUUAGCAGGUGGAGCCAUCUUCUGUGUUUCU,0.229 ratio

# Series 4
# Target: TAR DNA-binding protein 43, full length, His tag (TARDBP, Homo sapiens, UniProt Q13148, residues 1-414)
# Technique: RNA Bind-n-Seq
# Molecule type: RNA
# Medium: in vitro
# Concentration: 20 nM
# Notes: 6-mer, flanks averaged, single round
# With: 150 mM KCl
# Baseline: input library
# Direction: higher = stronger binding
Sequence,6-mer enrichment (R)
CGGACC,0.909
UCCACA,0.589
CUAGAU,0.589
CCACGG,1.09
UCCAUU,0.572
CCCGAG,0.937
UAUAGU,0.646
GUUAAU,0.656
